Published values from different studies.
A part holds a random share of what one study measured. Values joined by “and” are separate records of one study, mostly repeats; a detail may differ. ± gives the spread as reported.
Chain of UniProt Q9UKT9 (whole entry, looked up): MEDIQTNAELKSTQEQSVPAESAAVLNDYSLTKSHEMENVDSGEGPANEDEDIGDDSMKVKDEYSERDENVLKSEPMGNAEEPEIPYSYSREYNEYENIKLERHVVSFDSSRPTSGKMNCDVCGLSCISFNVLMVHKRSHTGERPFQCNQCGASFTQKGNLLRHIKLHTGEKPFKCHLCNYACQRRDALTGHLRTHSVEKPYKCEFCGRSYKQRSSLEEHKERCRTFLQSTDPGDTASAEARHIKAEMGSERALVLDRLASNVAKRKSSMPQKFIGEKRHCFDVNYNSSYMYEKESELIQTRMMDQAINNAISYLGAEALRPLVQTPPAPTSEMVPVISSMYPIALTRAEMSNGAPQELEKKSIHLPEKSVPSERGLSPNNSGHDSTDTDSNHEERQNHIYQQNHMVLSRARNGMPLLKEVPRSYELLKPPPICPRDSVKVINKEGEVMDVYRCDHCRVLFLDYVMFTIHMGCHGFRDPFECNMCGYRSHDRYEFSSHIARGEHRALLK
Chain of UniProt Q96PN8 (whole entry, looked up): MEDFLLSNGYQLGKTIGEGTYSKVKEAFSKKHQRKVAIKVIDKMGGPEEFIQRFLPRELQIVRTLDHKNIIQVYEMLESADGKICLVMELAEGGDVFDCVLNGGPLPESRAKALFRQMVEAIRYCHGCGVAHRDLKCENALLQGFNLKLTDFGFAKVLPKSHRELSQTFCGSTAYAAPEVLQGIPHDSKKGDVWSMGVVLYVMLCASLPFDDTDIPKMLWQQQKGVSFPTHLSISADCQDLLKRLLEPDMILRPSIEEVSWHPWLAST
Chain of UniProt Q9NYY3 (whole entry, looked up): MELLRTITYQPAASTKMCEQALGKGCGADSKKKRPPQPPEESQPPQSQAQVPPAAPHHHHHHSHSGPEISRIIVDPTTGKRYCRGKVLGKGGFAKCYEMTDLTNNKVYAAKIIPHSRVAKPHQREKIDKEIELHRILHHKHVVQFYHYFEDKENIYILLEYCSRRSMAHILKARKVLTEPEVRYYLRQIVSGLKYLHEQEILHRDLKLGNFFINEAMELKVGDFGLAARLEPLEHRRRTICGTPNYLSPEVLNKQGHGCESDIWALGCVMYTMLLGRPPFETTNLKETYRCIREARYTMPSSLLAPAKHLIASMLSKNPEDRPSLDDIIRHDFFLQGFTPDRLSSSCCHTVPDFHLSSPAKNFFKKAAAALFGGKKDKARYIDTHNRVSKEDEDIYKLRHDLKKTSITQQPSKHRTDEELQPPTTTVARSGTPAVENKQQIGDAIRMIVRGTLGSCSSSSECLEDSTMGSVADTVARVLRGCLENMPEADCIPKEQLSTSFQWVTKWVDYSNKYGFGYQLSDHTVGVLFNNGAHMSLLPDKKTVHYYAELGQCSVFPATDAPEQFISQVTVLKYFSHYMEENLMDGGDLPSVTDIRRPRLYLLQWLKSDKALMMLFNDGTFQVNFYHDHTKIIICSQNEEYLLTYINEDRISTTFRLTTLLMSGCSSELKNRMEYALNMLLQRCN
Chain of UniProt P06239 (whole entry, looked up): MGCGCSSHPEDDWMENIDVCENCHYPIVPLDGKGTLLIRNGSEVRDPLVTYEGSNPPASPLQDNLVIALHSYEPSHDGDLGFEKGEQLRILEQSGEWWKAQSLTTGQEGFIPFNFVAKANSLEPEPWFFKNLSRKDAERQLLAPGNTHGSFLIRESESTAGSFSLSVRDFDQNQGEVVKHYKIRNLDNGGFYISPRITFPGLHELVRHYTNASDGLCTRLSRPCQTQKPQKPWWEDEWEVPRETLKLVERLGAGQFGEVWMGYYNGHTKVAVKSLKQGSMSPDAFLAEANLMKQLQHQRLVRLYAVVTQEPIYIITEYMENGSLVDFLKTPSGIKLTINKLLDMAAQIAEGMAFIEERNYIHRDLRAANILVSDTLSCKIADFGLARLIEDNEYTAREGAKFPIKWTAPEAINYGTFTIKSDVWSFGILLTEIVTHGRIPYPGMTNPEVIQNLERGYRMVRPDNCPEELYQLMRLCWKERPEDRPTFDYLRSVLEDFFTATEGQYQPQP
Chain of UniProt O43283 (whole entry, looked up): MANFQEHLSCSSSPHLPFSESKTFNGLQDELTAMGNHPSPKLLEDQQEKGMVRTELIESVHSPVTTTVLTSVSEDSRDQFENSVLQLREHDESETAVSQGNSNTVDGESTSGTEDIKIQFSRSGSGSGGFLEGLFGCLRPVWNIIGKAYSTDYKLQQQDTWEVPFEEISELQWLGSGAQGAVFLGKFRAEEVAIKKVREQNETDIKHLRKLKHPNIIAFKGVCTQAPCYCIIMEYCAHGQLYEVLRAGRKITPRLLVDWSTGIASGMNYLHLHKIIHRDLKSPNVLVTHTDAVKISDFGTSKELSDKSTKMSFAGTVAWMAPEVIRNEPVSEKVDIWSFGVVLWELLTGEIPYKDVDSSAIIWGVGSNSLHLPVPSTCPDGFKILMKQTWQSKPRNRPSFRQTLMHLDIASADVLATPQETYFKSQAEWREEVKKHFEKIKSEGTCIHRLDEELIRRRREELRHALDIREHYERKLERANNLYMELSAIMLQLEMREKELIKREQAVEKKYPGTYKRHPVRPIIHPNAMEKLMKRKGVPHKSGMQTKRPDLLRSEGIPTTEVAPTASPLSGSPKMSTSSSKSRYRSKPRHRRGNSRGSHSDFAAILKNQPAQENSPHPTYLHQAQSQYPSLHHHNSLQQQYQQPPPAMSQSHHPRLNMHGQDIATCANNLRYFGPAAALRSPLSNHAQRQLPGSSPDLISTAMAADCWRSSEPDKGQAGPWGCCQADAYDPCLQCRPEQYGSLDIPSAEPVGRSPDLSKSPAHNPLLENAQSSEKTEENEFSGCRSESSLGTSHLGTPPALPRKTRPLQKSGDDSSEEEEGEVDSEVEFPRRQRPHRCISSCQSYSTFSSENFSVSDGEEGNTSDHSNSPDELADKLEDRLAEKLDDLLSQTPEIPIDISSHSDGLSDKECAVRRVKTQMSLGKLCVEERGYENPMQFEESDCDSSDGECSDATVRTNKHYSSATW
Chain of UniProt P68400 (whole entry, looked up): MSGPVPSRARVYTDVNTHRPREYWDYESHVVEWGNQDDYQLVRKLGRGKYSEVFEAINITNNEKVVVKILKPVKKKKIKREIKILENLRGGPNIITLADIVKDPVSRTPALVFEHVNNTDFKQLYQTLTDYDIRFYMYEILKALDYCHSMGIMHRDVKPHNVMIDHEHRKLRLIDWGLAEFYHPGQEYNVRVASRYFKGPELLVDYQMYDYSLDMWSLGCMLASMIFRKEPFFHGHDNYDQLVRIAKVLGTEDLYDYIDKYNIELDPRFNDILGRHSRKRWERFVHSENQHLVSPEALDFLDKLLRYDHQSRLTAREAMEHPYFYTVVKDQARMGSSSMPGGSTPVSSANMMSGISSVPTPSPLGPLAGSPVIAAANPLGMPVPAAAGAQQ

Study 1
SMILES: COc1cc(C(=O)OCCCN2CCCN(CCCOC(=O)c3cc(OC)c(OC)c(OC)c3)CC2)cc(OC)c1OC
Route: subcutaneous
For von Frey, 0.4 g filament; mouse, CFA inflammatory pain; 10 mg/kg, 3 h post-dose, second injection, day 3: “paw withdrawal frequency” read 80% and 60% and 70% and 90%.
For von Frey, 0.4 g filament; mouse, CFA inflammatory pain; 10 mg/kg, 5 h post-dose, third injection, day 5: “paw withdrawal frequency” read 70% and 60% and 80%.
von Frey test; mouse, STZ diabetic neuropathy; 30 mg/kg, second of three doses, 0 h — “paw withdrawal frequency”: 0.17 fraction of stimuli and 0.07 fraction of stimuli and 0.23 fraction of stimuli and 0.32 fraction of stimuli and 0.05 fraction of stimuli.
It gave 60% and 70% and 80% and 90% for “paw withdrawal frequency” (von Frey, 0.4 g filament; mouse, CFA inflammatory pain; 10 mg/kg, 24 h post-dose, third injection, day 5).

Study 2
Structure (SMILES): CC#CC(=O)N1CCC[C@H]1c1nc(-c2ccc(C(=O)Nc3ccccn3)cc2)c2c(N)nccn12
Observed: enzyme activity
Mode: inhibitor
Concentration: 1 µM
The inhibition was 0% (Tyrosine-protein kinase ABL1, phosphorylated (ABL1, Homo sapiens, UniProt P00519, T315I)).
MAP3K11 (Homo sapiens, UniProt Q16584) — inhibition: 0%.
It gave 3% for inhibition (TSSK3 (Homo sapiens, UniProt Q96PN8)).
It gave 10% for inhibition (CSNK2A1 (Homo sapiens, UniProt P68400)).
NTRK2 (Homo sapiens, UniProt Q16620) — inhibition: 0%.
The inhibition was 0% (PLK2 (Homo sapiens, UniProt Q9NYY3)).

Study 3
Target: Proto-oncogene tyrosine-protein kinase Src (SRC, Homo sapiens, UniProt P12931)
Observed: enzyme activity
Mode: inhibitor
Concentration: 0.5 µM
Baseline: control
With `CC(C)[C@H](CO)Nc1nc(Nc2cc(N)cc(Cl)c2)c2ncn(C(C)C)c2n1` the remaining activity was 3.75%.
With `Cn1c2ccccc2c2c3c(c4c5ccccc5n(CCC#N)c4c21)CNC3=O` the remaining activity was 74.8%.
`Nc1ncnc2n[nH]c(Nc3ccc(F)cc3)c12` gave a remaining activity of 89.6%.
For `NCCNc1ncc(C(N)=O)c(Nc2cccc(C(F)(F)F)c2)n1`, the remaining activity was 71.8%.
For `O=C(Nc1cccc(Nc2cc(Nc3cccc(C(F)(F)F)c3)ncn2)c1)C1CC1`, the remaining activity was 102%.
`Cc1nc(-c2ccccc2)c(-c2ccncc2)o1` has a remaining activity of 96.2%.
`O=C1NC(=O)C(c2cn(CCCO)c3ncccc23)=C1c1cnccn1` gave a remaining activity of 78.9%.
The remaining activity of `Nc1ccc2ncnc(NCCc3ccc(Oc4ccccc4)cc3)c2c1` is reported as 102%.
`CO[C@H]1C[C@@H]2CC[C@@H](C)[C@@](O)(O2)C(=O)C(=O)N2CCCC[C@H]2C(=O)O[C@H]([C@H](C)C[C@@H]2CC[C@@H](O)[C@H](OC)C2)CC(=O)[C@H](C)/C=C(\C)[C@@H](O)[C@@H](OC)C(=O)[C@H](C)C[C@H](C)/C=C/C=C/C=C/1C` gave a remaining activity of 96%.
`O=S(=O)(c1cccc2cnccc12)N1CCCNCC1` gave a remaining activity of 85.3%.
`COc1cc2nccc(Oc3ccc(NC(=S)NC(=O)c4ccccc4C)cc3)c2cc1OC` gave a remaining activity of 71.7%.
`N#CC(C#N)=C(N)/C(C#N)=C/c1ccc(O)cc1` gave a remaining activity of 92.3%.
With `Oc1ccc(-c2nc(-c3ccncc3)c(-c3ccc(F)cc3)[nH]2)cc1` the remaining activity was 85.9%.
The remaining activity of `O=C1NC(=O)C(c2cn(CCCn3ccnc3)c3ccccc23)=C1Nc1ccccc1` is reported as 100%.
`Cc1ccc(NC(=O)c2ccc(CN3CCN(C)CC3)cc2)cc1Nc1nc(-c2cccnc2)cs1` gave a remaining activity of 80%.

Study 4
SMILES: O=C1CCC(N2Cc3cc(C4CCN(Cc5ccccc5)CC4)ccc3C2=O)C(=O)N1 (centres unmarked)
Mode: degrader
CRBN/Zinc finger protein Helios: CRBN/Zinc finger protein Helios (Homo sapiens, UniProt Q96SW2+Q9UKS7)
Chain of UniProt Q9UKS7 (whole entry, looked up): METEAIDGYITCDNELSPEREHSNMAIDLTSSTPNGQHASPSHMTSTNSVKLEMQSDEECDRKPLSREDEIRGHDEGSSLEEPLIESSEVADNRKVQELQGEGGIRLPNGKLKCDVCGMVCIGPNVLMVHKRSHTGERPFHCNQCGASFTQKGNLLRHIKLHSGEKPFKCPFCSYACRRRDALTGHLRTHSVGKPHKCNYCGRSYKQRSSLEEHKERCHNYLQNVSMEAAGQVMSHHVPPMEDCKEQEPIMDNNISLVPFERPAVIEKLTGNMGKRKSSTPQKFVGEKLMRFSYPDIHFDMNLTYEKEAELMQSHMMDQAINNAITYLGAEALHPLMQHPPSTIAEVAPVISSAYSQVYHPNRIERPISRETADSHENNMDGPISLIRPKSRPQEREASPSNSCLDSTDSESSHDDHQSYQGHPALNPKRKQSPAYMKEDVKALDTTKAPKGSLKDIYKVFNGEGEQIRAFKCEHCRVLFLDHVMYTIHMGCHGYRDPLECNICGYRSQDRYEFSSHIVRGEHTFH
Chain of UniProt Q96SW2 (whole entry, looked up): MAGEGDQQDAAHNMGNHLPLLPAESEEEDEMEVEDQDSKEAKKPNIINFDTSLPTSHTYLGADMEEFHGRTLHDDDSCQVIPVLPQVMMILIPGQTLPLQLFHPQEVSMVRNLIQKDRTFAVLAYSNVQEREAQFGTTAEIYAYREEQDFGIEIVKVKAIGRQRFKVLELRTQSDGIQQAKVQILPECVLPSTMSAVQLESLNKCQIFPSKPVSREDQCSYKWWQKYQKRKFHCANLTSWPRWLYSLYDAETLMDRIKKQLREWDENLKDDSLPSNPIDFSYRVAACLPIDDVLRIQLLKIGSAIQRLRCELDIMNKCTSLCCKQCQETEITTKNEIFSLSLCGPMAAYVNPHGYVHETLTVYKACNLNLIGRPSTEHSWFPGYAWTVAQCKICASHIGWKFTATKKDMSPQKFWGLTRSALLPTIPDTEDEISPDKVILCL
For CRBN/Zinc finger protein Helios; flow cytometry; primary human regulatory T cells; 0.03704 µM, 3 h: remaining protein read 100%.
For CRBN/Zinc finger protein Helios; flow cytometry; primary human regulatory T cells; 5.08e-05 µM, 6 h: remaining protein read 107%.
It gave 93.8% for remaining protein (DNA-binding protein Ikaros (Homo sapiens, UniProt Q13422); HiBiT; HEK293; 0.004572 µM, 6 h).
It gave 85% and 82.1% for remaining protein (Zinc finger protein Aiolos (Homo sapiens, UniProt Q9UKT9); HiBiT; HEK293; 1.111 µM).

Study 5
Compound: CCC(=N\O)/C(C)=C/c1ccc(F)cc1
Concentration: 1 µM
The remaining binding was 89% (AAK1 (Homo sapiens, UniProt Q2M2I8); KINOMEscan; baseline: control).
It gave 100% for remaining binding (AXL (Homo sapiens, UniProt P30530); cell-free assay, competition with immobilised ligand).
For EPHB4 (Homo sapiens, UniProt P54760); cell-free assay, competition with immobilised ligand: remaining binding read 73%.
It gave 96% for remaining binding (MAP3K13 (Homo sapiens, UniProt O43283); cell-free assay, competition with immobilised ligand).
For LCK (Homo sapiens, UniProt P06239); cell-free assay, competition with immobilised ligand: remaining binding read 82%.

Mixed results
`OCCN1CCN(CCCN2c3ccccc3Sc3ccc(Cl)cc32)CC1` gave a serum glucose of 164 ± 12.4 mg/dL (mouse, serum; dose not given).

Some of these lines once more (study 4):
For CRBN/Zinc finger protein Helios; flow cytometry; primary human regulatory T cells; 5.08e-05 µM, 6 h: remaining protein read 107%.
It gave 93.8% for remaining protein (DNA-binding protein Ikaros (Homo sapiens, UniProt Q13422); HiBiT; HEK293; 0.004572 µM, 6 h).
It gave 85% and 82.1% for remaining protein (Zinc finger protein Aiolos (Homo sapiens, UniProt Q9UKT9); HiBiT; HEK293; 1.111 µM).
